Experimental data from different studies.
Protocols differ between the studies behind these lines. ± marks the error that the study gave.
B1: human ADP/ATP translocase 2; sequence looked up; chain MTDAAVSFAKDFLAGGVAAAISKTAVAPIERVKLLLQVQHASKQITADKQYKGIIDCVVRIPKEQGVLSFWRGNLANVIRYFPTQALNFAFKDKYKQIFLGGVDKRTQFWLYFAGNLASGGAAGATSLCFVYPLDFARTRLAADVGKAGAEREFRGLGDCLVKIYKSDGIKGLYQGFNVSVQGIIIYRAAYFGIYDTAKGMLPDPKNTHIVISWMIAQTVTAVAGLTSYPFDTVRRRMMMQSGRKGTDIMYTGTLDCWRKIARDEGGKAFFKGAWSNVLRGMGGAFVLVLYDEIKKYT
B2: human RAB13; sequence looked up; chain MAKAYDHLFKLLLIGDSGVGKTCLIIRFAEDNFNNTYISTIGIDFKIRTVDIEGKKIKLQVWDTAGQERFKTITTAYYRGAMGIILVYDITDEKSFENIQNWMKSIKENASAGVERLLLGNKCDMEAKRKVQKEQADKLAREHGIRFFETSAKSSMNVDEAFSSLARDILLKSGGRRSGNGNKPPSTDLKTCDKKNTNKC
B3: serpin B12 (human); sequence looked up; chain MDSLVTANTKFCFDLFQEIGKDDRHKNIFFSPLSLSAALGMVRLGARSDSAHQIDEVLHFNEFSQNESKEPDPCLKSNKQKAGSLNNESGLVSCYFGQLLSKLDRIKTDYTLSIANRLYGEQEFPICQEYLDGVIQFYHTTIESVDFQKNPEKSRQEINFWVECQSQGKIKELFSKDAINAETVLVLVNAVYFKAKWETYFDHENTVDAPFCLNANENKSVKMMTQKGLYRIGFIEEVKAQILEMRYTKGKLSMFVLLPSHSKDNLKGLEELERKITYEKMVAWSSSENMSEESVVLSFPRFTLEDSYDLNSILQDMGITDIFDETRADLTGISPSPNLYLSKIIHKTFVEVDENGTQAAAATGAVVSERSLRSWVEFNANHPFLFFIRHNKTQTILFYGRVCSP
B4: human TUBB; sequence looked up; chain MREIVHIQAGQCGNQIGAKFWEVISDEHGIDPTGTYHGDSDLQLDRISVYYNEATGGKYVPRAILVDLEPGTMDSVRSGPFGQIFRPDNFVFGQSGAGNNWAKGHYTEGAELVDSVLDVVRKEAESCDCLQGFQLTHSLGGGTGSGMGTLLISKIREEYPDRIMNTFSVVPSPKVSDTVVEPYNATLSVHQLVENTDETYCIDNEALYDICFRTLKLTTPTYGDLNHLVSATMSGVTTCLRFPGQLNADLRKLAVNMVPFPRLHFFMPGFAPLTSRGSQQYRALTVPELTQQVFDAKNMMAACDPRHGRYLTVAAVFRGRMSMKEVDEQMLNVQNKNSSYFVEWIPNNVKTAVCDIPPRGLKMAVTFIGNSTAIQELFKRISEQFTAMFRRKAFLHWYTGEGMDEMEFTEAESNMNDLVSEYQQYQDATAEEEEDFGEEAEEEA

| Substance | tested on | test | test system | setting | how to read | measurement | result |
| --- | --- | --- | --- | --- | --- | --- | --- |
| MTVCNASQRQAHAQATAVSL | H460 | phage binding | peptide |  | baseline: targeting over control phage | selectivity ratio | 150 ± 35 |
| durvalumab |  |  | human cancer patients, plasma | intravenous, 1500 mg, cycle 4 day 1, with: adavosertib 175 mg twice daily |  | Ctrough geometric mean | 63.8 µg/mL |
| TRAIL | EA.hy926 | CellTiter-Glo |  | concentration not given |  | viability | 31.6% |
| poly(rC)-binding protein 1, human | CYB5R4 knockout human cells | PP6 interaction, 3xFLAG-PP6C IP-MS |  | concentration not given | baseline: CYB5R4 KO over parental | log2 fold change | -1.96 |
| YLEPIYLSF | Jurkat expressing engineered TCR | NFAT-eGFP reporter, fluorescence microscopy | peptide | concentration not given, HLA-A*01:01 on EL4 cells |  | GFP-positive cells | 0.446% |
| Neuropeptide Y |  | RP-HPLC | HALO RP-amide column | 25 µM, formic acid/acetonitrile, 25 min gradient |  | retention time | 8.41 min |
| 11-deoxycorticosterone | human CYP11B2 | stopped-flow kinetic modelling |  | 3-state induced fit model, with: equimolar adrenodoxin |  | Kd | 2160 nM |
| Peginesatide | UT7/EPO | tyrosine phosphorylation, LC-MS/MS phosphoproteomics, trypsin, measured: PLCG1 tyrosine 783 |  | 10 nM, 15 min, with: 10 U/mL EPO | baseline: vehicle | phosphorylation level | 12.6 fold |
| Teicoplanin |  |  | stock solution | 5 months, -40 °C |  | recovery | 107% |
| colistin | Pseudomonas aeruginosa | broth microdilution | clinical isolate RKI-No_480/15 |  |  | MIC | 1 µg/mL |
| B1 (human ADP/ATP translocase 2) | CYB5R4 knockout human cells | PP4 interaction, 3xFLAG-PP4C IP-MS |  | concentration not given | baseline: CYB5R4 KO over parental | log2 fold change | -0.69 |
| caspofungin |  |  | adult ICU patients, mITT, serum | dose not given, day 14 |  | alkaline phosphatase | 168 U/L |
| human CDK9 | CYB5R4 knockout human cells | PP4 interaction, 3xFLAG-PP4C IP-MS |  | concentration not given | baseline: CYB5R4 KO over parental | log2 fold change | -0.81 |
| YTDIIPYGY | Jurkat expressing engineered TCR | NFAT-eGFP reporter, fluorescence microscopy | peptide | concentration not given, HLA-A*01:01 on EL4 cells |  | GFP-positive cells | 0.39% |
| lawsone | MOLT-3 | XTT |  |  | baseline: MRC5 IC50 over MOLT-3 IC50 | selectivity index | 16.6 |
| Ac-LRKLRKRLLRDWLKAFYDKVAEKLKEAF-NH2 (N-acetyl, C-amide) | HUVEC | inhibitor, Western blot | peptide | concentration not given, 6 h, with: LPS 1 µg/mL |  | VCAM-1 expression | inhibited |
| FGB (Homo sapiens, UniProt P02675) | LRRN1 (Homo sapiens, UniProt Q6UXK5) | cross-linking MS |  | with: DSSO |  | cross-linked residues | K353 to K666 |
| B2 (human RAB13) | CYB5R4 knockout human cells | PP4 interaction, 3xFLAG-PP4C IP-MS |  | concentration not given | baseline: CYB5R4 KO over parental | log2 fold change | -1.6 |
| FGA (Homo sapiens, UniProt P02671) | POPDC1 (Homo sapiens, UniProt Q8NE79) | cross-linking MS |  | with: DSSO |  | cross-linked residues | K432 to K272 |
| B3 (serpin B12) | CYB5R4 knockout human cells | PP4 interaction, 3xFLAG-PP4C IP-MS |  | concentration not given | baseline: CYB5R4 KO over parental | log2 fold change | 0.43 |
| PFVYLIRFHRFHRFHGGGSSSQLSRP | C57BL/6J mouse bone marrow-derived macrophages | siRNA delivery, flow cytometry | peptide | dose not given, 6 h, peptide-siRNA nanoparticles, with: Cy5-siRNA |  | transfection efficiency | 92% |
| QPDPIPNDY | Jurkat expressing engineered TCR | NFAT-eGFP reporter, fluorescence microscopy | peptide | concentration not given, HLA-A*01:01 on EL4 cells |  | GFP-positive cells | 0.459% |
| B4 (human TUBB) | CYB5R4 knockout human cells | PP4 interaction, 3xFLAG-PP4C IP-MS |  | concentration not given | baseline: CYB5R4 KO over parental | log2 fold change | -0.65 |
| MVDPIGLNY | Jurkat expressing engineered TCR | NFAT-eGFP reporter, fluorescence microscopy | peptide | concentration not given, HLA-A*01:01 on EL4 cells |  | GFP-positive cells | 0.444% |
| epoetin alfa | UT7/EPO | phosphorylation, agonist, measured: phospho-ERK1/2 |  | 10 min |  | EC50 | 0.007 nM |
| CTOP |  | RP-HPLC | HALO RP-amide column | 25 µM, formic acid/acetonitrile, 25 min gradient |  | retention time | 5.95 min |
| LADPIPDDF | Jurkat expressing engineered TCR | NFAT-eGFP reporter, fluorescence microscopy | peptide | concentration not given, HLA-A*01:01 on EL4 cells |  | GFP-positive cells | 0.442% |

Some of these lines once more:
| Substance | tested on | test | test system | setting | how to read | measurement | result |
| --- | --- | --- | --- | --- | --- | --- | --- |
| B4 (human TUBB) | CYB5R4 knockout human cells | PP4 interaction, 3xFLAG-PP4C IP-MS |  | concentration not given | baseline: CYB5R4 KO over parental | log2 fold change | -0.65 |
| MVDPIGLNY | Jurkat expressing engineered TCR | NFAT-eGFP reporter, fluorescence microscopy | peptide | concentration not given, HLA-A*01:01 on EL4 cells |  | GFP-positive cells | 0.444% |
| epoetin alfa | UT7/EPO | phosphorylation, agonist, measured: phospho-ERK1/2 |  | 10 min |  | EC50 | 0.007 nM |
